Results collected from several papers.
Lines come from different studies, so protocols differ.
Target: Muscarinic acetylcholine receptor M3 (CHRM3, Homo sapiens, UniProt P20309)
Chain of UniProt P20309 (whole entry, looked up): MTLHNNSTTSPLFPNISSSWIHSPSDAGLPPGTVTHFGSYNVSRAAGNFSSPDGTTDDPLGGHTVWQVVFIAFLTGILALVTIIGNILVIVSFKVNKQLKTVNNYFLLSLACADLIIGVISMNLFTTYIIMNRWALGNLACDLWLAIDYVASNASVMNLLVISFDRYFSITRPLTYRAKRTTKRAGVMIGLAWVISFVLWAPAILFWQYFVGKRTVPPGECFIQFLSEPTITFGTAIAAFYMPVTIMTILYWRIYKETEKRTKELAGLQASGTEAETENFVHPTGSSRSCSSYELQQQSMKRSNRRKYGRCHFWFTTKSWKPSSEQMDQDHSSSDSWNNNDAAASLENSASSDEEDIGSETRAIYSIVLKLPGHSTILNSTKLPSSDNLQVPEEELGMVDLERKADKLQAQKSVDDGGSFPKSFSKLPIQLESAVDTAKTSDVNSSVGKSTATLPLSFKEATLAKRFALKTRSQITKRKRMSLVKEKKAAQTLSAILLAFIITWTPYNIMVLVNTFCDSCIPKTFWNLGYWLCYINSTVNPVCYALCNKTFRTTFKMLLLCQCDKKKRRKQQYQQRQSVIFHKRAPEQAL

Compound | assay | setting | scale | measurement | result
O=C(NO)c1ccc(CN2CCCCc3ccccc32)c(F)c1 | radioligand binding, radioligand displacement | 10 µM |  | inhibition | -38.1%
O=C(CCNC(=O)CNC(=O)CC(c1ccccc1)(c1ccccc1)c1ccccc1)NCC1CCN(Cc2ccc(F)cc2)CC1 | [3H]N-methylscopolamine binding |  | relative to: IC50 M2 over M3 | selectivity ratio | 0.42
CN(C(=O)n1cnc(-c2ccc[n+]([O-])c2)c1)C1CCCCC1 | receptor binding | 10 µM, subtype M3 |  | inhibition | -8.73%
C[N+]1(C)CCC(OC(=O)C(c2ccccc2)c2ccccc2)CC1.[I-] | binding, antagonist, radioligand binding |  |  | Hill coefficient | 1.2
CCS(=O)(=O)c1nc(S(=O)(=O)c2ccccc2Cl)c(N2CCN(C)C(=O)[C@H]2C)s1 |  | 10 µM |  | inhibition | 1.17%
OCCCN1CC[C@@H]2C[C@H]1c1cc(-c3ccc(C(F)(F)F)cc3)ccc12 | radioligand binding, PDSP competition binding | 10 µM |  | inhibition | < 50%
CN1CCC(CNc2ccc3ncc(-c4cccc(OC(F)(F)F)c4)n3n2)CC1 | cell-based | 10 µM | relative to: control | response | > 50%
O=C(CCNC(=O)CNC(=O)CC(c1ccccc1)(c1ccccc1)c1ccccc1)NC[C@H]1CCCN(Cc2ccc(F)cc2)C1 | [3H]N-methylscopolamine binding |  | relative to: IC50 M2 over M3 | selectivity ratio | 34.2
CCN1/C(=C/C(C)=O)Sc2ccc(F)cc21 |  | 10 µM |  | inhibition | 0%

Repeated from above:
Compound | assay | setting | scale | measurement | result
OCCCN1CC[C@@H]2C[C@H]1c1cc(-c3ccc(C(F)(F)F)cc3)ccc12 | radioligand binding, PDSP competition binding | 10 µM |  | inhibition | < 50%
